Measurements of several laboratories.
Protocols differ between the studies behind these lines.
MAP2K7: Dual specificity mitogen-activated protein kinase kinase 7 (MAP2K7, Homo sapiens, UniProt O14733)
TDP1: Tyrosyl-DNA phosphodiesterase 1 (TDP1, Homo sapiens, UniProt Q9NUW8)
Sequence of UniProt Q9NUW8 (whole entry, looked up): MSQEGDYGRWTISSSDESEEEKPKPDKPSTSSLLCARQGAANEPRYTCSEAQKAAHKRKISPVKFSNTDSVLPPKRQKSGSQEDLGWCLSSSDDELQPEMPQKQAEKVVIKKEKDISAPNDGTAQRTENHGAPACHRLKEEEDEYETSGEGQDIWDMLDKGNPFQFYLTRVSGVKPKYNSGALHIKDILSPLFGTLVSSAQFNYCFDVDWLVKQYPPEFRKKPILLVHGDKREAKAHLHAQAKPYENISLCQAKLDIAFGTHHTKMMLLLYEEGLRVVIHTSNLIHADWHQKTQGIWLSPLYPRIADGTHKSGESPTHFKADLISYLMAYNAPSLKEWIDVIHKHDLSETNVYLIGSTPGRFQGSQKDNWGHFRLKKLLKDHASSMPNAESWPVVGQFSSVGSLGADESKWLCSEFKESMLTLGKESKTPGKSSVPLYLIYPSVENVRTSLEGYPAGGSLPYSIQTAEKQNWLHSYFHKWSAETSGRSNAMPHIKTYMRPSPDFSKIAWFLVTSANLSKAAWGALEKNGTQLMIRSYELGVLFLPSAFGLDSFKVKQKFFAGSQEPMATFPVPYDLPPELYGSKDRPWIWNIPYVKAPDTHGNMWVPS

COc1ccc(NC(=O)Nc2ccc3c(c2)C(=O)N(C(C)CO)CC(C)C(CN(C)Cc2ccc4c(c2)OCO4)O3)cc1 (centres unmarked)
remaining activity (MAP2K7; kinase activity, KinaseProfiler; 0.03 µM, species human; relative to: control): 121%

COc1c(Cl)cccc1Nc1c(-c2ccncc2C#C[C@@]2(C)CCCN2C(=O)/C=C/CN(C)C)[nH]c2c1C(=O)NCC2
remaining binding (MAP2K7; binding, competition with immobilised ligand; 3 µM): 95%

COc1c(OCCCN2CCOCC2)ccc2c1N=C(NC(=O)c1cnc(N)nc1)N1CCN=C21
remaining activity (MAP2K7; kinase activity, inhibitor; 1 µM; relative to: untreated control): 77%

Nc1ncc2c(n1)-c1c([nH]c3ccc(C4=CCOCC4)cc13)CCC2
remaining binding (MAP2K7; binding, competition with immobilised ligand; 1 µM): 81%

CCN1CCN(Cc2ccc(C(=O)Nc3ccc(C)c(NCc4cnc5[nH]ccc5c4OC)c3)cc2C(F)(F)F)CC1
remaining binding (MAP2K7; binding, competition with immobilised ligand; 1 µM): 20%

Cc1cnc2nc1Nc1cccc(c1)COC/C=C/COCc1cc(ccc1OCCN1CCOCC1)N2
remaining signal (MAP2K7; cell-free assay; 0.1 µM): 78%

CNC(=O)C[C@H](Cc1ccc(C#N)cc1)NC(=O)c1cc(-c2ccc(CN[C@H](C)c3ccc(C)cc3)o2)ccc1Cl
remaining activity (MAP2K7; enzyme activity, KinaseProfiler panel; 1 µM): 91%

Cc1noc(-c2ccc(C=NOCc3ccc(-c4nc5cc(-c6ccccc6)ccn5c4Nc4ccc(C(=O)O)cc4)cc3)cc2)n1
inhibition (TDP1; enzyme activity, inhibitor; 100 µM): 98.5%

CNC1C[S+]2CC[S+]3CC[S+](C1)[Ru-4]321([N]=C=S)[n]2c3ccc(OC)cc3c3c4c(c5cc(F)c[n+]1c5c32)C(=O)NC4=O (centres unmarked)
remaining binding (MAP2K7; KinomeScan; 0.1 µM; relative to: untreated): 100%

Cc1nc2c(F)cc(-c3nc(Nc4ccc(CNC(=O)CCCCCCC(=O)NO)cc4)ncc3F)cc2n1C(C)C
inhibition (MAP2K7; kinase activity; 1 µM): 62%

C=CC(=O)N1CCc2ccc(-n3c(=O)ccc4cnc5ccc(-c6cnn(C)c6)cc5c43)cc21
remaining binding (MAP2K7; KINOMEscan; 1 µM; relative to: DMSO control): 98%

Nc1oc2ccc(F)cc2c(=O)c1C=NOCc1ccc2nc(-c3ccccc3)c(Nc3ccc(C(=O)O)cc3)n2c1 (mixture of isomers)
inhibition (TDP1; enzyme activity, inhibitor; 100 µM, unpurified compound): 2.6%

O=C=[N][Ru-4]123([n]4c5ccc(O)cc5c5c6c(c7cc(F)c[n+]1c7c54)C(=O)NC6=O)[S+]1CC[S+]2CC[S+]3CC1 (centres unmarked)
remaining activity (MAP2K7; enzyme activity; 100 nM, human enzyme, added: 10 µM ATP; relative to: untreated): 63%

CS(=O)(=O)Nc1cccc(-c2csc3cnc(Nc4ccc(N5CCN(CCCCCOc6cccc7c6C(=O)N(C6CCC(=O)NC6=O)C7=O)CC5)cc4)nc23)c1 (centres unmarked)
inhibition (MAP2K7; probe labelling, inhibitor, KiNativ chemoproteomics; MOLT-4; 1 µM): -22.4%

Cc1ccc(-c2c(/C=C(\C#N)C(=O)NC(C)C)n(CCCO)c3ncnc(N)c23)cc1
remaining binding (MAP2K7; cell-free assay, competition with immobilised ligand; 1 µM): 70%

COc1cc(Nc2nc(C)cc(-c3cnn4nc(OC)ccc34)n2)cc(C(F)(F)F)c1
remaining activity (MAP2K7; inhibitor; 1 µM, MKK7; relative to: control): 99%

CNC(=O)C1CCN(c2cc(C)c(F)cc2NC(=O)c2ccc(-c3cc(O)ccc3C)c(C)c2)CC1
remaining binding (MAP2K7; binding, competition with immobilised ligand; 1 µM): 93%

COc1cc(Nc2nccc(-c3cnn4nc(OC)ccc34)n2)cc(C(F)(F)F)c1
remaining binding (MAP2K7; binding, competition with immobilised ligand; 1 µM): 77%

CC(C)=CC1OC(C)(C)C2C=C3C(=O)C(Cl)=CC(O)C3C3C(O)C4OC4C(=O)C132 (centres unmarked)
remaining binding (MAP2K7; cell-free assay, competition with immobilised ligand; 10 µM): 63%

C=CC(=O)N1CCCC(n2c(=O)c3ncccc3n(Cc3ccc(Oc4ccccc4)cc3)c2=O)C1 (centres unmarked)
remaining binding (MAP2K7; cell-free assay, competition with immobilised ligand; 1 µM): 74%

Excerpt of the above:
CS(=O)(=O)Nc1cccc(-c2csc3cnc(Nc4ccc(N5CCN(CCCCCOc6cccc7c6C(=O)N(C6CCC(=O)NC6=O)C7=O)CC5)cc4)nc23)c1 (centres unmarked)
inhibition (MAP2K7; probe labelling, inhibitor, KiNativ chemoproteomics; MOLT-4; 1 µM): -22.4%
